# Published values pooled from the literature.
# Parts stem from different laboratories: compare values within a part only.

# Series 1
# Target: Sal-like protein 4, full length isoform B (SALL4, Homo sapiens, UniProt Q9UJQ4-2, residues 1-616)
# Method: universal PBM
# Form: double-stranded DNA, one strand shown
# Matrix: in vitro
# Concentration: not given
# Notes: 8-mer, flanks averaged, mean of replicates
# Reading: higher = stronger binding
# Target sequence (chain): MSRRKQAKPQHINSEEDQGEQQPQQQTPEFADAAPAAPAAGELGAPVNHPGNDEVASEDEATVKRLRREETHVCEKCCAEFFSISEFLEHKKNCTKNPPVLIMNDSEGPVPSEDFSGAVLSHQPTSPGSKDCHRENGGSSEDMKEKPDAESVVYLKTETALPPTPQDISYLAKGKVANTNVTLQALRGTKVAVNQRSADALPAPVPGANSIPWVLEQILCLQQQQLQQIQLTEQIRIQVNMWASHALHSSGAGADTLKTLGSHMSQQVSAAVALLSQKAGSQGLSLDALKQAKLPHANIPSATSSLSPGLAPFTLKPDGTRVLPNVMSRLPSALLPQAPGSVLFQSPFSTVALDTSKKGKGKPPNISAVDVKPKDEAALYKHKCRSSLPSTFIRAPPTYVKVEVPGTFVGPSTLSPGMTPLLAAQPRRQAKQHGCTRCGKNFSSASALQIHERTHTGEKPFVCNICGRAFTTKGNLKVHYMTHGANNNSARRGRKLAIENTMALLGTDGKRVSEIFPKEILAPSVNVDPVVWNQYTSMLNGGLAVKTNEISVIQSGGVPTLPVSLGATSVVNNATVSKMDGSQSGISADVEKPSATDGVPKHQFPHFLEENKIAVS
Strand,E-score
AGACCCTA,-0.0796
ACCAACGT,0.0199
ATCTAATG,0.0791
CTATCACA,0.145

# Series 2
# Target: TATA-box-binding protein 1 (TBP1, Arabidopsis thaliana, UniProt P28147, residues 1-200, full length assumed)
# Method: protein-binding microarray
# Form: double-stranded DNA, one strand shown
# Matrix: in vitro
# Concentration: not given
# Notes: k-mer, scored over probes, only values ≥0.25
# Reading: higher = stronger binding
# Target sequence (chain): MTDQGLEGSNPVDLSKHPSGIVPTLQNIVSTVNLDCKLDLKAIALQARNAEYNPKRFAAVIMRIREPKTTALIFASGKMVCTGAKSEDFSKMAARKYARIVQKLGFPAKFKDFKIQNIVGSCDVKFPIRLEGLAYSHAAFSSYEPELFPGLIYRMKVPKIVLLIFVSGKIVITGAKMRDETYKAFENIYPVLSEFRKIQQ
Strand,E-score
TATTAGA,0.31
TATATAA,0.494
AAAAAGA,0.252
GGAAATA,0.27
ATTTTTA,0.402

# Series 3
# Target: Ras GTPase-activating protein-binding protein 1, full length (G3BP1, Homo sapiens, UniProt Q13283)
# UniProt Q13283, sequence (whole entry, looked up): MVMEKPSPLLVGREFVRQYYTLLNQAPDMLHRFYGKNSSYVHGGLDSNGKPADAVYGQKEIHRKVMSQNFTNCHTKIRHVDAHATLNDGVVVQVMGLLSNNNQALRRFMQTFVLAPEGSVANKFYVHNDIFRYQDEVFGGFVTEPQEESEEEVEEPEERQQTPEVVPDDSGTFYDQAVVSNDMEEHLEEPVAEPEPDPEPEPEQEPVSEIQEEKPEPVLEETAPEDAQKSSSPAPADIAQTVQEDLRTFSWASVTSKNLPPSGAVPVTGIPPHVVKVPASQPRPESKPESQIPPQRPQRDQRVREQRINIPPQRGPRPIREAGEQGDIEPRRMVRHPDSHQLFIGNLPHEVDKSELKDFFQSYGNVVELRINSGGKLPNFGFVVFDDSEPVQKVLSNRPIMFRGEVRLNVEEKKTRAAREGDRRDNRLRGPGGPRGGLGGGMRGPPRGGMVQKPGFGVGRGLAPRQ
# Method: RNA Bind-n-Seq
# Form: RNA
# Matrix: in vitro
# Concentration: 200 nM
# Notes: whole 134-nt RNA, ends assumed
# With: 150 mM LiCl
# Reference: input library
# Reading: higher = stronger binding
# All molecules: 7-deaza-guanosine replaces G
Strand,log2 enrichment
GGGAGUUCUACAGUCCGACGAUCGUCCUGUGCUACACAUCGUAUGUACCGAAUCGGCCCCCGGGGCCCCCGGGCCCCCGGGAAAGUAUUAUGUUACGCCGUUCGGAUCUGCACUGGAAUUCUCGGGUGUCAAGG,-1.45
GGGAGUUCUACAGUCCGACGAUCUGUCUUUCCUGGUGACUAGGAUGUCGUCGGAGGAGGACAAGAGCGUGGAGCAGCCGCAGCCGCCGCCACCACCCCCCGAGGAGCCUGGAGUGGAAUUCUCGGGUGUCAAGG,0.591
GGGAGUUCUACAGUCCGACGAUCCCUCAAGUCCUGUGCUACACAUCGUAUGUACCGAAUCGGAGGGAGGGAGGGGAAAGUAUUAUGUUACGCCGUUCGGAUCUGCACUUCCAGUGGAAUUCUCGGGUGUCAAGG,-0.35
GGGAGUUCUACAGUCCGACGAUCCCUGUGCUACACAUCGUAUGUACCGAAUCGGUUUUUUUGGGGUUUUUUUGGUUUUUUUGGAAAGUAUUAUGUUACGCCGUUCGGAUCUGCUGGAAUUCUCGGGUGUCAAGG,0.915

# Mixed results
Molecule,target,assay,test system,conditions,how to read,endpoint,result
"PhoQ, residues 284 288 289 292 302 303 NLSRDF","PhoP, residues 12 14 15 18 19 NIMAP (Escherichia coli, UniProt P23836)","Sort-seq, refers to: YFP reporter",E. coli,"PhoQ-PhoP variant library, with: 10 µM Mg2+","reference: high Mg2+ state, higher = stronger signaling",fold induction,0.942

# A few entries again (series 3):
Strand,log2 enrichment
GGGAGUUCUACAGUCCGACGAUCUGUCUUUCCUGGUGACUAGGAUGUCGUCGGAGGAGGACAAGAGCGUGGAGCAGCCGCAGCCGCCGCCACCACCCCCCGAGGAGCCUGGAGUGGAAUUCUCGGGUGUCAAGG,0.591
